Measured values gathered from unrelated publications.
Lines come from different studies, so protocols differ. ± gives the spread as reported.
Cell line: MCF7

CC(=C(c1ccc(Cl)cc1)c1ccc(OCCN2CCCC2)cc1)c1ccc(Cl)cc1  inhibition (cell growth or viability; 10 µM): 65.9%
CC1=[N+]2N=C(c3ccccc3)[O][Pd-2]2([Cl])[O+]=C2Oc3ccccc3C=C21 (stereo not drawn)  selectivity index (cytotoxicity, MTT; 24 h; baseline: WI-38 over MCF7 IC50): 2.94
COc1ccc(-c2nnc(-c3cc(-c4ccccc4)n(-c4ccc(S(N)(=O)=O)cc4)n3)o2)cc1  necrotic cells (Annexin V/PI; concentration not given; baseline: untreated): 1.57 fold
COc1cccc2c1C(=O)c1c(O)c3c(c(O)c1C2=O)CC(O)(C(=O)CO)CC3OC1CC(NC(=O)CCC2=C(C)C(=O)C=C(C(C)C)C2=O)C(O)C(C)O1 (stereo not drawn)  intracellular ROS level (DCFDA fluorescence; concentration not given, 4 h; baseline: DMSO): increased
CC(=NNC(=S)NN=C(C(=NO)c1ccccc1)c1ccccc1)c1ccccc1  relative protein level (Western blot, refers to: HO-1; IC50 concentration, 24 h; baseline: untreated): 1.45 ± 0.06
CCCc1cc(O)nc(SCCOC(=O)[C@]2(C)CCC[C@]3(C)c4ccc(C(C)C)cc4CCC23)n1 (stereo partly drawn)  apoptotic cells (annexin V-FITC/PI flow cytometry; 10 µM, 48 h): 18.3%
CCC(=C(c1ccc(Cl)cc1)c1ccc(OCCN2CCOCC2)cc1)c1ccc(Cl)cc1  inhibition (cell growth or viability; 10 µM): 24.8%
Cc1ccc(NC(=O)C2C(=O)C(c3ccccc3)c3ccc4c(c32)C(=O)c2ccccc2C4=O)cc1 (stereo not drawn)  TGI (cell growth or viability): 67.4 µM
CCCC(CCC)C(=O)[O][Pt]([Cl])([Cl])[O]C(=O)C(CCC)CCC.N.N  DNA-bound platinum (GF-AAS; 5 µM, 24 h; baseline: cellular platinum): 18%
COc1ccc(NC(=O)CCc2nc3cc(Cl)ccc3[nH]c2=O)cc1  selectivity index (MTT; baseline: WI-38 IC50 over MCF7 IC50): 19.2
Cc1ccc(C(C)C)cc1.[Cl-].[Cl][Ru+].[Ru+].c1ccc(-c2cn(CCCCOc3ccccc3-c3nc4ccccc4s3)nn2)nc1  cells in phase (PI flow cytometry, refers to: G2/M phase; 8 µM, 24 h): 17.1%
N=C(N)NCCC[C@H](NC(=O)[C@H](Cc1c[nH]c2ccccc12)NC(=O)[C@H](CCC(N)=O)NC(=O)[C@H](Cc1c[nH]c2ccccc12)NC(=O)[C@H](CCCNC(=N)N)NC(=O)[C@H](Cc1c[nH]c2ccccc12)NC(=O)[C@H](CCC(N)=O)NC(=O)[C@H](Cc1c[nH]c2ccccc12)NC(=O)[C@@H](N)CCCNC(=N)N)C(N)=O  caspase activation (flow cytometry; concentration not given, 2 h, extrinsic pathway): ~80%
C[n+]1c(/C=C/c2ccc(N(c3ccccc3)c3ccccc3)cc2)cc(/C=C2\Sc3ccccc3N2CCCN2CCCC2)c2ccccc21  CTCF mRNA level (qRT-PCR; concentration not given): no effect
NS(=O)(=O)c1ccc(/N=N/c2ccc(O)c(C=O)c2)cc1  selectivity index (MTT; 48 h; baseline: MCF10A IC50 over MCF7 IC50): 2.21
CCc1c2c(nc3ccc(O)cc13)-c1cc3c(c(=O)n1C2)COC(=O)[C@@]3(CC)OC(=O)[C@H](N)C(C)C  EC50 (cell viability, MTT; 72 h): 0.45 µM
CC(C)(C)c1cc2c(O)c(c1)Cc1cc(C(C)(C)C)cc(c1OCC(=O)Nc1cncc3ccccc13)Cc1cc(C(C)(C)C)cc(c1O)Cc1cc(C(C)(C)C)cc(c1OCC(=O)Nc1cncc3ccccc13)COC2  cleaved caspase-3 level (western blot; 0, 10, 20 µM): increased
FC(F)(F)c1cnc2[nH]cc(Cc3ccc(Cl)c(C(F)(F)F)c3)c2c1  inhibition (cell growth or viability; 10 µM, 72 h): 46%
Cc1cc([C@H](C(=O)N2C[C@H](O)C[C@H]2C(=O)N[C@@H](CC(=O)N2CCC(N3CCC(C#Cc4ccc(C(=O)N[C@H]5C(C)(C)[C@H](Oc6ccc(C#N)c(Cl)c6)C5(C)C)cc4)CC3)CC2)c2ccc(-c3scnc3C)cc2)C(C)C)on1  G2/M arrest concentration (flow cytometry; 72 h): 1 µM

For quick reference, copied from above:
CC1=[N+]2N=C(c3ccccc3)[O][Pd-2]2([Cl])[O+]=C2Oc3ccccc3C=C21 (stereo not drawn)  selectivity index (cytotoxicity, MTT; 24 h; baseline: WI-38 over MCF7 IC50): 2.94
COc1ccc(-c2nnc(-c3cc(-c4ccccc4)n(-c4ccc(S(N)(=O)=O)cc4)n3)o2)cc1  necrotic cells (Annexin V/PI; concentration not given; baseline: untreated): 1.57 fold
